Assay results pooled from the literature.
Every numbered part comes from another study and shows a few of its results, in no order.

Series 1
Target: Interferon regulatory factor 5, full length, phosphomimetic (IRF5, Homo sapiens, UniProt Q13568-2, residues 1-514, S451D/S453D/S456D/S462D)
Method: protein-binding microarray
Form: double-stranded DNA, one strand shown
Sample: in vitro
Tested at: 940 nM top
Setting: 60-bp whole probe
Added: salmon DNA 0.4 mg/ml
Relative to: random background probes
Direction: higher = stronger binding
All sequences stand within: GCCTAGCAC … GTCTTGATTCGCTTGACGCTGCTG
Under “fitted relative affinity”, `TTAGGTTCCGGTTTCGGTTTGTGCTAG` is recorded as 8.96 z-score.
Under “fitted relative affinity”, `ACAAATACAAGTTTCTCCTTGTGCTAG` is recorded as 1.5 z-score.
For `TTAGATATCGGGTTTAGATTAGTGCTA`, “fitted relative affinity” read 0.469 z-score.
`TTAGGACTGGGGCATCGGTTAGTGCTA`: “fitted relative affinity” 0.0385 z-score.
`GACGGCATCCTTCTCCTGACGTGCTAG`: “fitted relative affinity” 0.00779 z-score.
Under “fitted relative affinity”, `GACGATCTCAGTATAGAGACGTGCTAG` is recorded as 0.395 z-score.
`TTAGGTTTCTGTATCGGTTAGTGCTAG`: “fitted relative affinity” 7.48 z-score.

Series 2
Target: RNA binding protein fox-1 homolog 2, RRM domain, GST-SBP tag (RBFOX2, Homo sapiens, UniProt O43251-10, residues 100-194)
Method: RNA Bind-n-Seq
Form: RNA
Sample: in vitro
Tested at: 365 nM
Setting: natural RNA segment, single round, ends assumed
Relative to: no-protein control
Direction: higher = stronger binding
All sequences stand within: GGGAGUUCUACAGUCCGACGAUC … UGGAAUUCUCGGGUGCCAA
Target sequence (chain): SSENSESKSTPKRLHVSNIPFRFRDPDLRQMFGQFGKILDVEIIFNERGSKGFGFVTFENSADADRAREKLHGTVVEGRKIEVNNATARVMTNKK
Under “RBNS enrichment (R)”, `UGCAUUUCUUUAACCAUAGCUGUAAUGUACCAUAUUAAAUUGUAGCCUUUUGCAUGCGGGUAUUAUAUAAUAAUGAAUGGGUGGCUCCUAGUAGCAUGCAACCCAUGACU` is recorded as 23.5.
`UGACCCCUCUCCUCAAGGGAAGGCCUUGGGUGGCCCCCUCUCCUUCUCCUAGCUCUGGAGGUGCUGCUCUAGGGCAGGGAAUUAUGGGAGAAGUGGGGGCAGCCCAGGCG` — result for “RBNS enrichment (R)”: 0.223.
For `CAUAGUUCCUUAUACACAGACACCUGCAUCAUCGAAGGUCUUUUUUUCCUAAAAAAAAAAAAUGGGAUUUUAGUUCUUAUUCUGUGAUAACUAUCCUCCUCAUAUAAUAC`, “RBNS enrichment (R)” read 0.713.
`ACAUAGUGUGAGUCAAGGCCAGCUUGGGCUACAUGACACCCUGUCCAGGGGAGGAGGUGGGCAAGCUAACCGAAAGACUCCAUCUUUGUGUGCCCCACCCCUGGACAUAU`: “RBNS enrichment (R)” 0.317.
`UUUGGUAGACAUGUGCUUUGACAUAGCGUGAGCAGCACAUUACUAAAGCAAUUACAUGCAUGUUGCAUUUUUUUCAUCUGUUGUACAUAGUUGUAUUUUUAUCUAAUGCC` — result for “RBNS enrichment (R)”: 2.15.
`CUGAACUGUGCGUAAAGUAAUAGAGAAAAGCUUUAGGGUCUCAAUAGUGUCACCUGUGUAAAUCAAAUCAAAAUAGCCUUCCCUAUUAUUUAUGAACCCAUGGGAGACUU`: “RBNS enrichment (R)” 0.327.

Series 3
Target: Prothrombin, mature alpha-thrombin (F2, Homo sapiens, UniProt P00734)
Method: aptamer microarray, sandwich
Form: DNA with 2'F-ANA
Sample: in vitro
Tested at: 200 nM
Setting: whole 15-mer aptamer, many near background
Added: Cy3 exosite-II aptamer, 400 nM
Direction: higher = stronger binding
Oligonucleotide: GGTTGGTGTGGTTGG
Under “mean fluorescence intensity”, `2'F-ANA at 3 4 7 9 10 11 12 13` is recorded as 312 a.u.
Under “mean fluorescence intensity”, `2'F-ANA at 1 6 7 8 9 10 11 12 13 15` is recorded as 120 a.u.
`2'F-ANA at 2 3 5 6 7 8 10`: “mean fluorescence intensity” 50.6 a.u.
For `2'F-ANA at 3 4 7 8 9 10 11`, “mean fluorescence intensity” read 306 a.u.
For `2'F-ANA at 2 3 6 8 9 10 12 13`, “mean fluorescence intensity” read 333 a.u.

Mixed results
`PhoQ, residues 284 288 289 292 302 303 AGCYAI` gave a fold induction of 14.7 (PhoP, residues 12 14 15 18 19 YHFSH (Escherichia coli, UniProt P23836); Sort-seq, measured: YFP reporter; E. coli; PhoQ-PhoP variant library, added: 10 µM Mg2+; relative to: high Mg2+ state, higher = stronger signaling).

Excerpt of the above (series 2):
`ACAUAGUGUGAGUCAAGGCCAGCUUGGGCUACAUGACACCCUGUCCAGGGGAGGAGGUGGGCAAGCUAACCGAAAGACUCCAUCUUUGUGUGCCCCACCCCUGGACAUAU`: “RBNS enrichment (R)” 0.317.
`UUUGGUAGACAUGUGCUUUGACAUAGCGUGAGCAGCACAUUACUAAAGCAAUUACAUGCAUGUUGCAUUUUUUUCAUCUGUUGUACAUAGUUGUAUUUUUAUCUAAUGCC` — result for “RBNS enrichment (R)”: 2.15.
